Measurements collected from several papers.
± marks the error that the study gave.

Amino acid sequences for entries named in this document (tags omitted).
UniProt Q9BXA6, whole entry: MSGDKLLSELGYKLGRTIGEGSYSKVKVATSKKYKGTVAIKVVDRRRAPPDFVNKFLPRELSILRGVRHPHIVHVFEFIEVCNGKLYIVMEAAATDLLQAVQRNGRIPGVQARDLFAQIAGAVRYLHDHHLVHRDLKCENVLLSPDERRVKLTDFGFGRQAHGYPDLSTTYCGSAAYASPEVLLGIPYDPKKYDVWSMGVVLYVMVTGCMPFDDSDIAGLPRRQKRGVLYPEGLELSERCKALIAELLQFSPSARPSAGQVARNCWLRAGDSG

SMILES | target | assay | test system | setting | scale | endpoint | result
C#Cc1ccc2c(c1)C(c1ccccc1F)=N[C@H](C)c1c(-c3nc(C(C)C)no3)ncn1-2 | GABA-A receptor benzodiazepine site, rat | radioligand binding | brain homogenate | concentration not given, primary screen, added: [3H]flunitrazepam |  | inhibition | > 50%
CC(C)Cc1nnc2c(C(=O)NC3c4ccccc4-c4ccccc43)cccn12 | RNA polymerase Δω, Escherichia coli | enzyme activity |  |  | baseline: mutant over wild type | IC50 ratio | 6
O=C(C1CC1)N1CC2CC(C1)N2 | dopamine release | [3H]dopamine release, agonist | rat, striatal synaptosomes |  |  | EC50 | 0.14 µM
CCCN1CCN(c2ccc3c(c2)C2CC3CCN2C(=O)OCc2ccccc2)CC1 (stereo not shown) | peripheral benzodiazepine receptor | radioligand binding |  |  |  | Ki | > 10 µM
Cc1ccc(S(=O)(=O)N(C)CC(=O)N(Cc2ccc(C3CCCCC3)cc2)c2ccc(C(=O)O)c(O)c2)cc1 | STAT3 | EMSA | NIH3T3/v-Src, PANC-1, MDA-MB-231 | 50 µM, 24 h |  | Stat3 DNA-binding activity | inhibited
CCN1CCN(Cc2ccc(NC(=O)c3ccc(C)c(/C=C/c4cnc5[nH]ccc5c4OC)c3)cc2C(F)(F)F)CC1 | TSSK6 (Homo sapiens, UniProt Q9BXA6) | kinase-CDC37 interaction, inhibitor | human cells | 5 µM | baseline: vehicle | log2 fold change | 0.708
O=C(N/N=C/c1cc([N+](=O)[O-])ccc1O)c1ccc(O)cc1O | PHGDH human | de novo serine synthesis, inhibitor, LC-HRMS isotope tracing, item: serine and glycine | SK-OV-3 GFP knockout control | 37 µM, 24 h, added: U-13C-glucose | baseline: untreated | reduction of 13C incorporation | > 50%
CCN(CC)C(=O)Oc1ccc(C(=O)Nc2cccc3cc[nH]c23)cc1 | muscle nicotinic acetylcholine receptor α1β1γδ | modulator, two-electrode voltage clamp | Xenopus oocytes | 20 µM, added: 1 µM acetylcholine | baseline: agonist alone | current response | 100 ± 3.3%
CC#C/C(=N\OC[C@H]1COCCN1)c1ccc2ncnc(Nc3ccc(OCc4cccc(F)c4)c(Cl)c3)c2c1 | SYK (Homo sapiens, UniProt P43405) | kinase activity |  | 10 µM |  | inhibition | 31.9%
CC1=C(c2ccc(Cl)cc2)S(=O)(=O)N=C1N1CCC(N2CCCCC2)CC1 | AAC(3)-IV Escherichia coli | acetyltransferase activity, inhibitor |  | concentration not given |  | inhibition | no inhibition

Some of these lines once more:
SMILES | target | assay | test system | setting | scale | endpoint | result
Cc1ccc(S(=O)(=O)N(C)CC(=O)N(Cc2ccc(C3CCCCC3)cc2)c2ccc(C(=O)O)c(O)c2)cc1 | STAT3 | EMSA | NIH3T3/v-Src, PANC-1, MDA-MB-231 | 50 µM, 24 h |  | Stat3 DNA-binding activity | inhibited
